Measurements of several laboratories.
Protocols differ between the studies behind these lines. ± gives the spread as reported. Values after ≈ are worked out from the molar mass of the structure shown.

For `CC(C)(C)N/C=C(/c1ccccc1)S(=O)(=O)O`, “metabolite AUC ratio” read 1.49 (Swiss Webster mouse, female, plasma; AUC(0-8h), metabolite peak areas; relative to: PO over IV, dose-normalised).
The uptake ratio of `CCCC[C@H](NC(=O)CNC(=O)CNC(=O)CN1CCN(CC(=O)O)CCN(CC(=O)O)CC1)C(=O)N[C@H]1CC(=O)NCCCC[C@@H](C(N)=O)NC(=O)[C@H](Cc2c[nH]c3ccccc23)NC(=O)[C@H](CCCNC(=N)N)NC(=O)[C@@H](Cc2ccccc2)NC(=O)[C@H](Cc2c[nH]cn2)NC1=O` [copper-64 labelled] is reported as 1.35 (female C57 mouse, B16/F1 melanoma; intravenous, 0.037 MBq, 0.5 h; relative to: tumour over kidneys).
`CC/C=C\C/C=C\C/C=C\C/C=C\C/C=C\CCCCOC(CC)C(=O)O` (stereo not drawn) has a radioactivity concentration of 70.6 µg equiv/g ([14C] label; male Wistar rat, kidney cortex; oral, 100 mg/kg, 2 h).
`Cn1c(=O)oc2ccc(-c3ccc(CC(C#N)NC(=O)C4CNCCCO4)c(F)c3)cc21` (stereo not drawn) — result for “subjects with TRAE”: 0% (refers to: blood bilirubin increased; human; 80 mg single dose, fasted).
With `Cc1ccc(OCC(=O)N(Cc2cccs2)c2ccn[nH]2)cc1` the Tmax was 1.67 h (beagle dog, male, plasma; oral gavage, 30 mg/kg).
For `CCc1noc(CC)c1C(=O)O[C@H]1C(C)=C[C@]23C(=O)[C@@H](C=C(CO)[C@@H](O)[C@]12O)[C@H]1[C@@H](C[C@H]3C)C1(C)C`, the 5-isomer level was < 3% (phosphate buffer; concentration not given, up to 24 h, pH 7.4, 37 °C).
Under “fraction excreted unchanged”, `CC(C)(Sc1cc[n+]([O-])cc1-c1ccc(C#N)c2ccccc12)C(=O)OC1OC(C(=O)O)C(O)C(O)C1O` (stereo not drawn) is recorded as 18.8% (urine; oral, 15 mg, 72 h, mild renal impairment; relative to: dose).
`Cc1ccc(-c2ccc(-c3cc4sccc4o3)cn2)nc1`: “fluorescence quantum yield” 0.44 (aqueous HEPES buffer; pH 7.4, zinc(II)-saturated form, with: quinine bisulfate reference).
`CCC1CC2C(C)=CC3C(=O)CCCC3C=CC(C)=CC2C(=O)O1` (stereo not drawn) has a plasma concentration of 1.5 ± 2.6 ng/mL (ICR mouse, male, plasma; oral, 30 mg/kg, 30 min).
With `Cc1[nH]c(=O)c(CNC(=O)c2cnc(C(F)(F)F)nc2)c2c1CCCC2` the kinetic solubility was 146 µg/mL (≈ 397 µM) (U-HPLC; 20% DMSO in water).
Under “apparent central volume (V1/F)”, `N=C(N)NCCC[C@@H]1NC(=O)[C@H](Cc2c[nH]c3ccccc23)NC(=O)[C@@H](CC2CCCCC2)NC(=O)[C@@H]2CCCN2C(=O)[C@@H](NC(=O)CCc2ccccc2)CCCNC1=O` is recorded as 0.08 µg/(ng/g) (C57BL/6J mice, brain; subcutaneous, 1 mg/kg, two-compartment model).
The AUC(0-τ) of `COc1cc(C)c(Cc2ccc(O)cc2)cc1[C@@H]1S[C@H](CO)[C@@H](O)[C@H](O)[C@H]1O` is reported as 116 ± 15.3 ng·h/mL (Japanese T2DM patients, plasma; 2.5 mg luseogliflozin, day 7, once daily).
`CC(C)C[C@@H]1NC(=O)CNC(=O)[C@H](CC(N)=O)NC(=O)[C@H](CCCNC(=N)N)NC(=O)[C@H]([C@@H](C)O)NC(=O)[C@@H]2CSSC[C@@H]3NC(=O)[C@H]([C@@H](C)O)NC(=O)CNC(=O)CNC(=O)[C@H](C(C)C)NC(=O)[C@@H]4CSSC[C@H](NC(=O)[C@H]([C@@H](C)O)NC(=O)[C@H](CSSC[C@H](NC(=O)[C@H](C(C)C)NC(=O)[C@@H]5CCCN5C1=O)C(=O)NCC(=O)N[C@@H](CCC(=O)O)C(=O)N[C@@H]([C@@H](C)O)C(=O)N4)NC(=O)CNC(=O)[C@@H]1CCCN1C(=O)[C@H]([C@@H](C)O)NC(=O)[C@H](CC(N)=O)NC3=O)C(=O)N[C@@H](CO)C(=O)N[C@@H](Cc1c[nH]c3ccccc13)C(=O)N1CCC[C@H]1C(=O)N[C@@H](C(C)C)C(=O)N2` has a fraction unbound of 0.25 ± 0.08 (equilibrium dialysis; rat, plasma; 1 µM, 24 h).
The remaining compound of `COc1cc(NC(C)=O)c2c(c1O)-c1c(OC)c(OC)cc3c1C(C2)N(C)CC3` (stereo not drawn) is reported as 104 ± 3.1% (rat, processed plasma samples; 5 µg/mL, 24 h, room temperature, post-preparative storage).
With `COC(=O)/C=C/C(=O)c1ccc(OC)cc1` the recovery was 101 ± 6.32% (LC-MS/MS; rat plasma; 400 ng/mL, 12 h, room temperature, short-term storage).
`COCCOCCOCCOCCC(=O)NCc1cc(CNC(=O)CCOCCOCCOCCOC)cc(-c2cc3cc4nc(c(-c5ccc(CCC(=O)O)cc5)c5[nH]c(cc6nc(c(OC)c2[nH]3)CC6(C)C)cc5-c2cc(CNC(=O)CCOCCOCCOCCOC)cc(CNC(=O)CCOCCOCCOCCOC)c2)CC4(C)C)c1` — result for “Qy/B absorption intensity ratio”: 0.75 (DMF; room temperature).
`CC(NC(=O)OC1OC(C(=O)O)C(O)C(O)C1O)c1cc(Cl)ccc1Cn1c(=S)[nH]c(=O)c2[nH]ccc21` (stereo not drawn) gave a recovery of > 84% (equilibrium dialysis; male Han Wistar rat plasma; 16 h, pH 7.4).
`[11CH3]c1ccc2nc(C3CCC3)n(-c3ccc4[nH]ncc4c3)c2n1` — result for “absorbed radiation dose”: 3.4 µSv/MBq (human male, adrenals).
The absorbed dose of `O=C([O-])CN1CCN(CC(=O)[O-])CCN(CC(=O)NC[C@H]2CC[C@H](C(=O)N[C@H](Cc3cnc4ccccc4c3)C(=O)NCCCC[C@H](NC(=O)N[C@@H](CCC(=O)O)C(=O)O)C(=O)O)CC2)CCN(CC(=O)[O-])CC1.[64Cu+2]` is reported as 0.0307 mGy/MBq (PET/CT, OLINDA/EXM dosimetry; healthy human volunteers, right colon).
`CC(=O)N[C@H](CC(=O)O)C(=O)N[C@H](Cc1c[nH]c2ccccc12)C(=O)N[C@H](Cc1ccccc1)C(=O)N[C@H](CCCCN)C(=O)N[C@H](C)C(=O)N[C@H](Cc1ccccc1)C(=O)N[C@H](Cc1ccc(O)cc1)C(=O)N[C@H](CC(=O)O)C(=O)N[C@H](CCCCN)C(=O)N[C@@H](C(=O)N[C@H](C)C(=O)N[C@H](CCC(=O)O)C(=O)N[C@H](CCCCN)C(=O)N[C@H](Cc1ccccc1)C(=O)N[C@H](CCCCN)C(=O)N[C@H](CCC(=O)O)C(=O)N[C@H](C)C(=O)N[C@H](Cc1ccccc1)C(N)=O)C(C)C` has an AUC(0-t) of 22.7 ng·h/mL (statin-treated high-risk CHD men, plasma; oral, 300 mg daily, day 13, 0 to 8 h, mean, undetectable set to 0).
`Cc1ccc(C(=O)N[C@@H](CO)CC(C)C)cc1C`: “metabolite peak area” 1% (LC-MS; human liver microsomes; 10 µM of parent drug, 20 min, pH 7.4, with: NADPH; relative to: parent drug at time zero).
`COc1cc(-c2nc3ccc(C(=O)NCCCN4CCN(c5ccccc5)C(=O)C4)cc3n2C2CCC2)cc(OC)c1OC` has a dynamic solubility of 154 µM.
For `CCCC[C@H](NC(=O)CNC(=O)CNC(=O)CN1CCN(CC(=O)O)CCN(CC(=O)O)CC1)C(=O)N[C@H]1CC(=O)NCCCC[C@@H](C(N)=O)NC(=O)[C@H](Cc2c[nH]c3ccccc23)NC(=O)[C@H](CCCNC(=N)N)NC(=O)[C@@H](Cc2ccccc2)NC(=O)[C@H](Cc2c[nH]cn2)NC1=O` [gallium-67 labelled], “tumour to tissue ratio” read 33.4 (female C57 mice, B16/F1 melanoma; intravenous, 0.037 MBq, 4 h; relative to: tumour over liver).
For `N[C@H]1[C@H](O[C@H]2[C@H](O)[C@@H](N)[C@H](O[C@H]3[C@H](O)[C@@H](N)[C@H](O[C@H]4[C@H](O)[C@@H](N)C(O)O[C@@H]4CO)O[C@@H]3CO)O[C@@H]2CO)O[C@H](CO)[C@@H](O)[C@@H]1O` (stereo partly drawn), capecitabine absorption read “inhibited” (SD rats; 250 mg/kg, with: capecitabine).
`CC(C)[C@H](NC(=O)[C@@H]1CCCN1C(=O)[C@H](CCCNC(=N)N)NC(=O)[C@H](CS)NC(=O)[C@H](Cc1c[nH]c2ccccc12)NC(=O)[C@H](CCCNC(=N)N)NC(=O)[C@@H](Cc1ccccc1)NC(=O)[C@H](Cc1c[nH]cn1)NC(=O)[C@H](CCC(=O)O)NC(=O)[C@H](CS)NC(=O)[C@H](CS)NC(=O)[C@@H]1CC(=O)N[C@@H](CCCNC(=N)N)C(=O)NCC(=O)N[C@@H](CC(=O)O)C(=O)N[C@H](Cc2ccc(O)cc2)C(=O)N1)C(N)=O` [technetium-99m labelled] — result for “tumour to tissue ratio”: 6.53 (C57 mouse, female, B16/F1 melanoma; intravenous, 0.037 MBq, 2 h; relative to: tumour over liver).
`C=C(C)C(=O)Nc1ccc(-c2c(-c3ccc(Oc4nccc(C)n4)cc3)c3c(N)ncnc3n2C)cc1` has a bioavailability of 45% (beagle dog, plasma; oral).
Under “mean absorbed dose”, `NC12CNCCNCC(NCc3ccc(CNC(=O)CCCC(=O)NCc4ccc(-c5nncnn5)cc4)cc3)(CNCCNC1)CNCCNC2.[64Cu+2]` is recorded as 0.0484 rad/mCi (OLINDA dosimetry; lower large intestine wall; pretargeting, 24-h interval).
The fluorescence brightness of `CCCCN1C(=O)c2cccc3c(NCCCCCCCCCCN4CCOCC4)ccc(c23)C1=O` is reported as 912 M⁻¹ cm⁻¹ (aqueous medium; pH 6).
`COc1ccc(-c2ccn(CC[C@](C)(C(=O)NO)S(C)(=O)=O)c(=O)c2)c(F)c1` gave a clearance of 63.2 ± 13 mL/min/kg (CF-1 mouse, female; subcutaneous, 18.75 mg/kg).
For `Oc1ccc2ccccc2c1/N=N/c1ccc(/N=N/c2ccccc2)cc1`, “elimination rate constant” read 8.05e-05 s⁻¹ (Sprague-Dawley rats both sexes, whole blood; oral, 50 mg/kg).
For `CCC(=O)N(C)c1ccc(Cl)c(Cl)c1`, the turnover was 24.2% (human liver S9 cofactor-fortified; 10 µM, 1 h, pH 7.4; relative to: boiled S9).
`NS(=O)(=O)c1ccc(N2N=C(C(F)(F)F)CC2c2ccc(F)cc2F)cc1` (stereo not drawn): “elimination rate ratio” 2.2 fold (male Wistar rat, liver microsomes; 20 µM, pH 7.4; relative to: human over rat).
The measured concentration of `Cc1ccc(/N=N/c2c(O)ccc3ccccc23)c(C)c1` is reported as 16.1 µg/L (rat whole blood QC samples; 16.0 µg/L, 2 h, room temperature, short-term stability).
